Published values gathered from unrelated publications.
Every numbered part comes from another study and shows a few of its results, in no order. ± marks the error that the study gave. In brackets after ≈: the same amount, converted by molar mass.

Set 1
Organism: SARS-CoV-2 Wuhan spike VSV pseudovirus
Effect on: pseudovirus entry
Concentration: 10 µM
SMILES | inhibition
Cn1nccc1C(=O)N1C[C@@H](COCC2CC2)[C@H](c2ccncc2)C1 | 55%
CC(C)CN1CCOC(CNC(=O)Cn2ncc(Br)c(Br)c2=O)C1 (stereo not drawn) | 75%
CC(=O)NOCc1cccc(-c2cc(F)ccc2C)c1 | 99%
CCS(=O)(=O)N1C[C@@H](COC)[C@H](c2ccncc2)C1 | 78%
CCOc1ccc(CCNc2ncnc3sc(CC)cc23)cc1OCC | 69%
CC(=O)c1ccc(NC(=O)CSc2nnc(-c3nc(-c4ccccc4)no3)n2C)cc1 | 83%
O=C1NCCN1c1cccc(C(=O)N2CCc3c([nH]c4ccccc34)C2C2CCCCC2)c1 (stereo not drawn) | 59%
CCc1ccc(NC(=O)c2cnc(N3CCN(c4ccccn4)CC3)c3ccccc23)cc1 | 64%
O=C(N[C@@H]1CN(Cc2c[nH]c3ccccc23)C[C@H]1CO)c1ccccc1 | 72%
c1cc(-c2noc(CSc3nnnn3C3CC3)n2)cs1 | 68%
COc1ccc(S(=O)(=O)N2CCC[C@@H]2C(=O)NCCc2csc(C)n2)cc1Cl | 55%
CCOC(=O)N1CCN(C2CCCN(C(=O)c3scc4c3CCCC4)C2)CC1 (stereo not drawn) | 60%
COc1cccc(F)c1-c1ccc2cc[nH]c(=O)c2c1 | 100%
COC[C@@H]1CN(C(=O)c2ccc3[nH]ccc3c2)C[C@H]1c1nc(C)no1 | 84%
Cc1noc(C)c1C(=O)N1C[C@@H](CO)[C@H](c2ccncc2)C1 | 73%
O=C(NCCc1csc(-c2ccccc2)n1)[C@H]1CCCN1C(=O)c1ccco1 | 53%
CC(C)NC(=O)c1cccc(-c2noc(-c3cc4ccccc4[nH]3)n2)c1 | 65%
CC(CNC(=O)c1nc(CCS(=O)(=O)c2ccc(Cl)cc2)no1)c1ccccc1 (stereo not drawn) | 70%
O=C(Cc1ccc2c(c1)OCCO2)Nc1ccc(-c2nccs2)cc1 | 70%
CCS(=O)(=O)c1ncc(Cl)c(C(=O)Nc2ccc(S(=O)(=O)N(C)c3ccccc3)cc2)n1 | 100%
O=C(Cn1ncc(Cl)c(Cl)c1=O)c1ccc(Cl)s1 | 64%
CCCS(=O)(=O)N1C[C@@H](COC)[C@H](c2nc(C)no2)C1 | 83%
COc1ccc(-c2nc(CN(Cc3c(C)nn(C)c3C)C3CC3)c(C)o2)c(C)c1C | 69%
O=C(NC1CC(=O)N(Cc2ccccc2Cl)C1)c1cc2ccccc2o1 (stereo not drawn) | 81%
CN1CCN(Cc2c(O)ccc3cc(-c4ccc(F)cc4)c(=O)oc23)CC1 | 98%

Other studies, line by line
Matrix protein 2 V27A: Matrix protein 2 (Influenza A virus, UniProt P0DOF5, V27A)
rep papain-like protease: Replicase polyprotein 1ab, papain-like protease (rep, Severe acute respiratory syndrome coronavirus 2, UniProt P0DTD1)
rep nsp12 RdRp: Replicase polyprotein 1ab, nsp12 RdRp (rep, Severe acute respiratory syndrome coronavirus 2, UniProt P0DTD1)
rep nsp14: Replicase polyprotein 1ab, nsp14 (rep, Severe acute respiratory syndrome coronavirus 2, UniProt P0DTD1)
SMILES | target or system | test | test system | setting | scale | measurement | value
CCCCCCCCCCC[C@@H](C[C@@H]1OC(=O)[C@H]1CCCCCC)OC(=O)[C@H](CC(C)C)NC=O | Severe acute respiratory syndrome coronavirus 2 | viral replication, inhibitor | Vero C1008 | – | – | IC50 | ~500000 nM
CN(C)CCn1c(C(=O)N2CCN(c3ccccc3Cl)CC2)c(C(c2ccc(O)cc2)c2ccc(O)cc2)c2ccccc21 | SARS-CoV-2 | viral replication, inhibitor | Vero E6, USA-WA1/2020 | 24 h | – | EC90 | ~1420 nM
CCC(CC)[C@H](NC(C)=O)[C@@H]1[C@H](O)[C@@H](C(=O)O)C[C@H]1N=C(N)N | neuraminidase (Influenza B virus, UniProt C0LT34, I221N) | – | – | – | – | IC50 | 131 ± 13.7 nM
Cl.NC12C3CCC4C3C3C(CCC31)C42 | Matrix protein 2 V27A | – | – | concentration not given, pH 5.5, cell-based | – | inhibition | 0%
CC(C)(C)[C@H](NC(=O)C(F)(F)F)C(=O)N1C[C@H]2[C@@H]([C@H]1C(=O)N[C@H](C#N)C[C@@H]1CCNC1=O)C2(C)C | SARS-CoV-2 | replicon replication | A4136V/S4145N Mpro cleavage site replicon | – | – | EC50 | 17 nM
C=C(C)C1(O)OC(=O)C=C1OC (stereo not drawn) | rep papain-like protease | – | – | concentration not given, C111S mutant | reference: positive control | activity | 22.1%
CC[C@H](C)[C@@H]1NC(=O)[C@H](CCC(N)=O)NC(=O)[C@H](CCC(=O)O)NC(=O)[C@H](CCCNC(=N)N)NC(=O)[C@@H]2CCCN2C(=O)[C@H](CCCNC(=N)N)NC(=O)[C@H](CCCNC(=N)N)NC(=O)[C@H](Cc2ccc(O)cc2)NC(=O)CSC[C@@H](C(=O)NCC(N)=O)NC(=O)[C@H](Cc2ccccc2)NC(=O)[C@H](C(C)C)NC(=O)[C@H](Cc2c[nH]c3ccccc23)NC(=O)[C@H](CC(C)C)NC(=O)[C@H](CO)NC(=O)CNC(=O)[C@H]([C@@H](C)CC)NC(=O)[C@H]([C@@H](C)CC)NC1=O | SARS-CoV-2 spike protein Delta variant | binding | – | – | – | Kd | 50 nM
CCOC(=O)CN[C@@H](C(=O)N1CC[C@H]1C(=O)NCc1ccc(/C(N)=N\O)cc1)C1CCCCC1 | rep papain-like protease | – | – | concentration not given, C111S mutant | reference: positive control | activity | 19.1%
CCc1cc(=O)c2c(OCC(O)CN3CCC(C)CC3)c3ccoc3c(OC)c2o1 (stereo not drawn) | Mycobacterium tuberculosis | Alamar blue | 22/22, SIRE and linezolid resistant | 21 days, 37 °C | – | MIC | 16 µg/mL (≈ 38.5 µM)
NCC[C@H](O)C(=O)N[C@@H]1C[C@H](N)[C@@H](O[C@H]2O[C@H](CN)[C@@H](O)[C@H](O)[C@H]2O)[C@H](O)[C@H]1O[C@H]1O[C@H](CO)[C@@H](O)[C@H](N)[C@H]1O | Mycobacterium tuberculosis | – | H37Rv mc2-6206 MmpL3 L567P | – | – | MIC80 | 0.85 µM (≈ 0.498 µg/mL)
C=C1C[C@@]23CC[C@H]4[C@@](C)(CCC[C@@]4(C)C(=O)O)[C@@H]2CC[C@]1(O[C@@H]1O[C@H](CO)[C@@H](O)[C@H](O)[C@H]1O[C@@H]1O[C@H](CO)[C@@H](O)[C@H](O)[C@H]1O)C3 | rep nsp12 RdRp | binding, biolayer interferometry | – | 50 µM | – | BLI response | 0.05 nm
CO[C@H]1/C=C/O[C@@]2(C)Oc3c(C)c(O)c4c(O)c(c(/C=N/N5CCN(C)CC5)c(O)c4c3C2=O)NC(=O)/C(C)=C\C=C\[C@H](C)[C@H](O)[C@@H](C)[C@@H](O)[C@@H](C)[C@H](OC(C)=O)[C@@H]1C | Mycobacterium tuberculosis | Alamar blue | 22/22, SIRE and linezolid resistant | 21 days, 37 °C | – | MIC | 256 µg/mL (≈ 311 µM)
OC[C@H]1O[C@@H](n2cnc3c(N[C@@H]4CCOC4)ncnc32)[C@H](O)[C@@H]1O | Severe acute respiratory syndrome coronavirus 2 | viral replication, inhibitor | Vero C1008 | 48 h | – | EC90 | 11900 nM
O=C(NC1CCN(c2ncnc3[nH]cnc23)CC1)c1cccc(S(=O)(=O)N2CCCC2)c1 | rep nsp14 | NSP14 enzyme activity, inhibitor | – | 0.01221 µM | – | inhibition | 13.2%
CCC(CC)COC(=O)[C@H](C)N[P@](=O)(OC[C@H]1O[C@@](C#N)(c2ccc3c(N)ncnn23)[C@H](O)[C@@H]1O)Oc1ccccc1 | SARS-CoV-2 | viral replication | Vero C1008, B.1.1.7 | – | – | EC50 | 900 nM
Nc1ncnc2c1ncn2[C@@H]1O[C@H](CSCC[C@H](N)C(=O)O)[C@@H](O)[C@H]1O | rep nsp14 | thermal shift | – | 15.63 µM | – | ΔTm | 7.2 °C
N#C[C@@]1(n2ccc(N)nc2=O)O[C@H](CO)[C@@H](O)[C@H]1O | SARS-CoV-2 Omicron | viral replication | Calu-3 | – | – | EC90 | 3800 ± 1400 nM
CCCCCCC#Cc1cncc(-c2nnc(SCc3ccc([N+](=O)[O-])o3)n2C2CC2)c1 | Mycobacterium tuberculosis | MABA | Erdman M3 FbiC P367S mutant | – | – | IC50 | > 1000 nM
O=C(O[C@@H]1O[C@@H]2COC(=O)c3cc(O)c(O)c(O)c3-c3c(cc(O)c(O)c3O)C(=O)O[C@H]([C@H]1O)[C@@H]2O)c1cc(O)c(O)c(O)c1 | rep nsp12 RdRp | binding, biolayer interferometry | – | 50 µM | – | BLI response | 0.18 nm
CCC(CC)COC(=O)[C@H](C)N[P@](=O)(OC[C@H]1O[C@@](C#N)(c2ccc3c(N)ncnn23)[C@H](O)[C@@H]1O)Oc1ccccc1 | SARS-CoV-2 | viral replication | Vero, Gamma | – | – | EC50 | 100 ± 200 nM
CC(C)[C@H](NC(=O)[C@H](CCCNC(=N)N)NC(=O)N[C@@H](Cc1ccccc1)C(=O)O)C(=O)N[C@H](C=O)CCCNC(=N)N | SARS-CoV-2 | viral replication | Vero C1008, B.1.351 | – | – | EC50 | 26100 nM
Nc1ncnc2c1ncn2[C@@H]1O[C@H](CO)[C@@H](O)[C@@H]1O | SARS-CoV-2 | cytopathic effect | Vero C1008, Omicron BA.1 | 48 h | – | IC100 | 8.05 ± 0.29 µM
CC#CCn1c(N2CCC[C@@H](N)C2)nc2c1c(=O)n(Cc1nc(C)c3ccccc3n1)c(=O)n2C | SARS-CoV-2 | viral replication | Vero E6, B.1.617 (Kappa) | 48 h | – | IC50 | 2270 nM
CCN(CC)C12C3CCC4C3C3C(CCC31)C42.Cl | Matrix protein 2 V27A | – | – | concentration not given, pH 5.5, cell-based | – | inhibition | 0%
COc1ccc(-c2cc(=O)c3c(OC)c(OC)c(OC)cc3o2)cc1 | Replicase polyprotein 1ab, main protease (rep, Severe acute respiratory syndrome coronavirus 2, UniProt P0DTD1) | enzyme activity, inhibitor, FRET | – | 50 µM | – | inhibition | -28.8%
N[C@@H](CC(=O)N1CCn2c(nnc2C(F)(F)F)C1)Cc1cc(F)c(F)cc1F | SARS-CoV-2 | viral replication | Vero E6, B.1.1.7 (Alpha) | 48 h | – | IC50 | 1640 nM

A few entries again (other studies, line by line):
SMILES | target or system | test | test system | setting | scale | measurement | value
NCC[C@H](O)C(=O)N[C@@H]1C[C@H](N)[C@@H](O[C@H]2O[C@H](CN)[C@@H](O)[C@H](O)[C@H]2O)[C@H](O)[C@H]1O[C@H]1O[C@H](CO)[C@@H](O)[C@H](N)[C@H]1O | Mycobacterium tuberculosis | – | H37Rv mc2-6206 MmpL3 L567P | – | – | MIC80 | 0.85 µM (≈ 0.498 µg/mL)
CCCCCCCCCCC[C@@H](C[C@@H]1OC(=O)[C@H]1CCCCCC)OC(=O)[C@H](CC(C)C)NC=O | Severe acute respiratory syndrome coronavirus 2 | viral replication, inhibitor | Vero C1008 | – | – | IC50 | ~500000 nM
CC#CCn1c(N2CCC[C@@H](N)C2)nc2c1c(=O)n(Cc1nc(C)c3ccccc3n1)c(=O)n2C | SARS-CoV-2 | viral replication | Vero E6, B.1.617 (Kappa) | 48 h | – | IC50 | 2270 nM
N[C@@H](CC(=O)N1CCn2c(nnc2C(F)(F)F)C1)Cc1cc(F)c(F)cc1F | SARS-CoV-2 | viral replication | Vero E6, B.1.1.7 (Alpha) | 48 h | – | IC50 | 1640 nM
Cl.NC12C3CCC4C3C3C(CCC31)C42 | Matrix protein 2 V27A | – | – | concentration not given, pH 5.5, cell-based | – | inhibition | 0%
Nc1ncnc2c1ncn2[C@@H]1O[C@H](CSCC[C@H](N)C(=O)O)[C@@H](O)[C@H]1O | rep nsp14 | thermal shift | – | 15.63 µM | – | ΔTm | 7.2 °C
